Measured values of several laboratories.
Each line is one published result; not all experiments were run side by side. Numbers after ± are the reported error.

O=C(Nc1ccc(Cl)cc1)Nc1ccc(Cl)c(Cl)c1  milk fat partition ratio (cow whole milk; 200 nM; relative to: milk fat over skim milk): 158
Cc1cn(C(=O)c2c(-c3c(Cl)cc(Cl)cc3Cl)noc2C(C)(C)F)c2cccc(/C=C/C(=O)O)c12  AUC(0-8h) (human patients; 700 mg bid, cycle 1 day 1): 125000 ng·h/mL
CSCC[C@H](NC(=O)[C@H](CCCCN)NC(=O)[C@H](CCCNC(=N)N)NC(=O)[C@H](CO)NC(=O)[C@H](Cc1c[nH]c2ccccc12)NC(=O)[C@H](CCCNC(=N)N)NC(=O)[C@@H](CC(C)C)NC(=O)[C@@H](N)CCSC)C(=O)N1CCC[C@H]1C(=O)N[C@@H](CS)C(=O)N[C@H](C(=O)N[C@@H](CO)C(N)=O)C(C)C  remaining activity (12G5 competition, SUP-T1 cells; human plasma; concentration not given, 8 h): 77 ± 24%
FC(F)(F)CN1CC(n2cc(Oc3ccn4nc(Cl)cc4n3)cn2)C1  day of premature euthanasia (Crl:CD(SD) rat, male; oral, 150 mg/kg/day, 14-day repeat-dose toxicology): 8 days
CCC(=O)N(CCC(c1ccc2c(c1)OCO2)c1ccccc1OC)Cc1ccccc1 (stereo not shown)  RDW-CV (female athymic nude mouse, blood; i.p., 60 mg/kg twice daily, 14 days, group mean): 24.5%
C=CCn1c(=O)c2cnc(Nc3ccc(N4CCN(C)CC4)cc3)nc2n1-c1cccc(C(C)(C)O)n1  AUC(0-10 h) (human patients; oral, 125 mg twice daily, day 17, cycle 1, with: durvalumab 1500 mg iv): 4.46 µM·h
O=C(Nc1nc2cccc(-c3ccc(CN4CCS(=O)(=O)CC4)cc3)n2n1)C1CC1  treatment-emergent adverse events (item: investigations; human rheumatoid arthritis patients; oral, 200 mg once daily, 4 weeks, regardless of relatedness): 0%
Cc1ccc([C@@H]2O[C@H](CO)[C@@H](O)[C@H](O)[C@H]2O)cc1Cc1ccc(-c2ccc(F)cc2)s1  urinary sodium excretion change (Japanese type 2 diabetes patients; 25 mg, day 5, 24 h urine collection; relative to: baseline): 21.6 mEq
CC(C)C[C@@H]1NC(=O)[C@H](C)N(C)C(=O)[C@H](Cc2ccccc2)NCc2ccc(n2C)CNC1=O  -log Pe (PAMPA; lecithin in dodecane; 100 µM, 17 h, pH 6.4, 37 °C): 6.3
C[C@@H](Nc1cc(F)cc(F)c1)c1cc(C(=O)N(C)C)cc2c(=O)cc(N3CCOCC3)oc12  dose reduction due to AE (advanced solid tumour patients; oral, 30 mg twice daily, continuous monotherapy): 25%
CCc1cc(C(=O)NC)c2nccc(N3CCc4c(cc(Cn5ccnc5)cc4-c4cn(C)nc4C(F)(F)F)C3=O)c2c1  body weight change (Sprague Dawley rats; oral, 100 mg/kg twice daily, day 5; relative to: day 1): 6.7%
CCCOc1ccc(NC(=O)CN2CCN(C)CC2)cc1-c1nc(CC)c(CC)c(=O)[nH]1  maximal increase in pulse rate (healthy Chinese men; 10 mg, with: placebo; relative to: baseline): 17.6 ± 10.2 bpm
COc1ccc([C@@H](O)c2cc(-c3ncnc4cc(N5CCOCC5)ccc34)c(F)cc2Cl)nn1  drug-related gastrointestinal AE (locally advanced rectal cancer patients; 250 mg, with: capecitabine and radiotherapy): 83%
Cl.[2H]C([2H])([2H])CC(=O)c1cnc(NC(=O)C2CC2)cc1Nc1cccc(-c2ncn(C([2H])([2H])[2H])n2)c1OC  elimination rate constant (geometric mean; human; oral, 20 mg twice daily, day 1, fed, liquid, multiple dose): 4.5e-05 s⁻¹
N#C[C@@]1(c2ccc3c(N)ncnn23)O[C@H](CO)[C@@H](O)[C@H]1O  recovery (plasma protein binding; mouse plasma; 1 µM, time not given): 96.5%
C=CC(=O)NC1CCN(c2ncc3ncnc(Nc4ccc(Oc5ccc6c(c5)ncn6C)c(C)c4)c3n2)CC1  AUC(0-tz) ratio (healthy male humans; oral, dose not given, with: carbamazepine; relative to: with over without carbamazepine): 36.5%
CC(C)C[C@H](N)C(=O)N[C@@H](Cc1c[nH]c2ccccc12)C(=O)N[C@@H](Cc1c[nH]c2ccccc12)C(=O)N[C@@H](CCCNC(=N)N)C(=O)N[C@@H](Cc1c[nH]c2ccccc12)C(=O)N[C@@H](Cc1c[nH]c2ccccc12)C(=O)N[C@@H](CCCNC(=N)N)C(=O)N[C@@H](Cc1c[nH]c2ccccc12)C(=O)N[C@@H](CCCNC(=N)N)C(=O)O  beta-sheet content (circular dichroism; 30 mM SDS): 22%
N#Cc1ccc2c(c1)[C@H]1CCCN(C(=O)c3ccc4[nH]cnc4c3)[C@H]1C2  Vz/F at steady state (human, plasma; oral, 240 mg once daily): 847 L
COCCN(C)C(=O)c1ccc([C@H]2[C@@H](F)[C@@H](F)C[C@@H](F)[C@H]2F)cc1  hepatic clearance (hepatocyte stability; cryopreserved human hepatocytes; 1 µM): 6.5 mL/min/kg
N#Cc1ccc2c(c1)[C@H]1CCCN(C(=O)c3ccc4[nH]cnc4c3)[C@H]1C2  maximum ACTH level (human; 20 mg, day 7): 17.1 pmol/L
CCOc1c([C@H](C)n2nc(C)c3c(N)ncnc32)cc(Cl)c(F)c1[C@@H]1CNC(=O)C1  observations with HR ≤100 bpm (human B-cell malignancy patients; oral, all doses, baseline below threshold): 99.1%
CCN1/C(=C/C(C)=O)Sc2ccc(F)cc21  heart rate (cynomolgus monkey; oral, 100 mg/kg, 2 h post-dose): 114 ± 21 beats/min
O=C(Cn1ccnc1)Nc1ccc(C2CCCCC2)cc1  hepatic clearance (rat liver microsomes; 1 µM): 19 mL/min/kg
CO[C@@H]1[C@H](O)[C@@H](CO)O[C@H]1n1c([N+](=O)[O-])nc2c(=O)[nH]c(N)nc21  nucleoside remaining fraction (depurination, RP-HPLC; citrate-phosphate buffer 0.5 mM; 1260 min, pH 5, 37 °C): 0.574
CC(C)NCCCC[C@@H]1NC(=O)[C@H](Cc2ccc(O)cc2)NC(=O)[C@H](Cc2ccccc2)NC(=O)CC[C@H](C(=O)N[C@@H](CCCCNC(C)C)C(=O)N[C@@H](CCCCNC(=O)[C@H](CCC(=O)O)NC(=O)[C@H](CCC(=O)O)NC(=O)[C@H](CCC(=O)O)NC(=O)CN2CCN(CC(=O)O)CCN(CC(=O)O)CCN(CC(=O)O)CC2)C(N)=O)NC(=O)CNC(=O)[C@H](Cc2ccc3ccccc3c2)NC(=O)[C@@H](CCCNC(=N)N)NC1=O [gallium-68 labelled]  tissue uptake (mouse with PC-3 xenograft, spleen; intravenous, 1 h): 0.39 %ID/g
CC(=O)N1CC(C(=O)Nc2ccc(C3CCCCC3)cc2)C1  hepatic clearance (liver microsome stability; rat liver microsomes; 1 µM): 45 mL/min/kg
COc1ccnc(C(=O)NC(CO)C(=O)O)c1O (racemic)  KFoc (soil adsorption; clay loam soil; pH 7.2, organic carbon 4.4 %): 138 mL/g
Cc1ccc(Sc2ccccc2N2CCNCC2)c(C)c1  participants with TEAE (item: blood creatine phosphokinase increased; healthy adult men; oral, 10 mg daily, 12 days): 0%
COc1ccc2c(c1)CN(C(=O)CCN1CCC(Cc3ccccc3)CC1)CC[S@@+]2[O-]  heart rate (telemetry; conscious dog; intravenous, 8 mg/kg, 0.5 h): 158 ± 45 beats/min
NC1(C(=O)N[C@@H](CCO)c2ccc(Cl)cc2)CCN(c2nc[nH]c3nccc2-3)CC1  incidence of weight decreased (metastatic CRPC patients; 480 mg b.i.d., any grade, treatment-related, with: enzalutamide 160 mg daily): 20%
NC(=O)CCNC(=O)c1ccc(C2CCCCC2)cc1  hepatic clearance (hepatocyte stability; cryopreserved human hepatocytes; 1 µM): 16 mL/min/kg
CNC(=O)c1ccc(-c2cnc3ncc(Cc4ccc5ncccc5c4)n3n2)cc1F  AUC(0-t) (human, healthy subjects, plasma; oral, 200 mg, covariate-adjusted geometric mean): 6620 ng·h/mL
C=CC(=O)NC1CCN(c2ncc3ncnc(Nc4ccc(Oc5ccc6c(c5)ncn6C)c(C)c4)c3n2)CC1  dose recovered as radioactivity (item: total radioactivity; healthy male volunteers, faeces; oral solution, 60 mg, 680 h collection, 14C-labelled, geometric mean): 92.5%
C[C@]12CC[C@@H]3c4ccc(O)cc4CC[C@H]3[C@@H]1CCC2=O  dose fraction in milk fat (whole cow milk; 20 nM nominal): 74.4%
O=C1CC[C@H](N2Cc3cc(N4CCN(CC5CCN(c6ccc([C@@H]7c8ccc(O)cc8CC[C@@H]7c7ccccc7)cc6)CC5)CC4)ccc3C2=O)C(=O)N1  participants with TRAE diarrhoea (human; oral, 200 mg, with: dabigatran etexilate 75 mg): 0%
C=CC(=O)Nc1cc(Nc2nccc(-c3cn(C)c4ccccc34)n2)c(OC)cc1N(C)CCN(C)C  recovery (storage stability; human dried blood spot; 30 d, -80 °C, LQC level): 91.3%
O=C(NCCc1cccnc1)c1ccc(C2CCCCC2)cc1  hepatic clearance (liver microsome stability; mouse liver microsomes; 1 µM): 85 mL/min/kg
COc1ccc2[nH]c([S+]([O-])Cc3ncc(C)c(OC)c3C)nc2c1 (stereo not shown)  Cmax (healthy Chinese volunteers, plasma; oral, 20 mg, fasted, all CYP2C19 genotypes): 661 ± 583 ng/mL
O=C(O)CCC(=O)O.[2H]C([2H])([2H])Oc1cc(C)c2[nH]ccc2c1CN1CC[C@@H](C2CC2)C[C@H]1c1ccc(C(=O)O)cc1  TEAE elevated blood triglycerides (healthy Chinese subjects; 100 mg, single ascending dose): 16.7%
Cc1nc2ccc(F)cc2n1-c1nc(N)c(F)c(Nc2ccc(C(F)(F)F)cc2)n1  myelosuppression-related DLT (leiomyosarcoma patients; 400 mg twice weekly, with: dacarbazine 1000 mg/m^2; relative to: subjects): 75%
CN1CCN(C(=O)c2ccc(C3CCCCC3)cc2)CC1=O  hepatic clearance (liver microsome stability; rat liver microsomes; 1 µM): 45 mL/min/kg
CCO[C@H]1CCN(Cc2c(OC)cc(C)c3[nH]ccc23)[C@H](c2ccc(C(=O)O)cc2)C1  unbound AUCinf (human moderate hepatic impairment, plasma; oral, 200 mg single dose, mean): 5990 ng·h/mL
COc1cccc(-c2n[nH]c(SCc3ccccn3)n2)c1OC  plasma concentration (Sprague-Dawley rats, both sexes; oral dietary, 10 mg/kg/day, day 7, 0 h): 25.1 ng/mL
O=C(N[C@H](Cc1c[nH]c2ccccc12)C(=O)Nc1ccncc1)c1ccc(-c2ccc(F)c(Cl)c2)cc1F  concentration (Swiss Webster mouse, female, intestine; oral, 50 mg/kg, 2 h, 20% HPβCD vehicle): 90 nM
CNCc1ccc(-c2[nH]c3cc(F)cc4c3c2CCNC4=O)cc1  dysgeusia incidence (human patients; oral, 240 mg twice daily, all grades): 33.3%
COc1ncc(-c2nc3c(n2C(C)C)[C@H](c2ccc(Cl)cc2)N(c2cc(Cl)cn(C)c2=O)C3=O)c(OC)n1  median Tmax (human patients, plasma; oral, 200 mg, high-dose arm, cycle 1 day 1): 3 h
Cc1ccc(C(=O)N(CCCN)C(c2nc3snc(C)c3c(=O)n2Cc2ccccc2)C(C)C)cc1 (stereo not shown)  patients with adverse event (mucosal inflammation grade ≥3 (CTCAE); human patients; intravenous, 18 mg/day): 0%
Cc1cc(C)c(CNC(=O)c2cc(Cl)c3c(c2C)O[C@@](C)([C@H]2CC[C@H](N(C)C)CC2)O3)c(=O)[nH]1  patients with grade ≥3 TEAE (item: Hyponatremia; human patients; oral, 200 mg once daily, 1 day onset day 14): 0%
CC(C)(C(=O)N1CCOc2c(C#N)cncc2C1)C(F)F  subjects with adverse event (item: Investigations; human; oral, 20 mg twice daily, 14 days, multiple ascending dose): 12.5%
O=C(COc1ccc(Cl)cc1)NC12CC(c3nnc([C@H]4C[C@@H](OC(F)(F)F)C4)o3)(C1)C2  Cmax (healthy human volunteers fasted, plasma; oral, 200 mg single dose, geometric mean): 2070 nM
C=CC(=O)Nc1cc(Nc2nccc(-c3cn(C4CC4)c4ccccc34)n2)c(OC)cc1N(C)CCN(C)C  relative error (autosampler stability; rat plasma; 1 ng/mL, 4 h, 10 °C; relative to: nominal concentration): -7.7%
CN1C(=O)[C@@H](NC(=O)c2nnc(Cc3ccccc3)[nH]2)COc2cccnc21  Vz/F (healthy human, fasted, plasma; oral, 200 mg single dose, geometric mean): 57.1 L
O=C(NCCc1cccnc1)c1ccc([C@H]2[C@@H](F)[C@@H](F)C[C@@H](F)[C@H]2F)cc1  hepatic clearance (liver microsome stability; dog liver microsomes; 1 µM): 23 mL/min/kg
COc1cc(Nc2ncc(F)c(Nc3ccc4c(n3)NC(=O)C(C)(C)O4)n2)cc(OC)c1OC  single adjusting compartment blood flow (human): 14 L/h
COc1cc(N2CCC(N3CCN(C)CC3)CC2)ccc1Nc1ncnc(Nc2ccccc2S(=O)(=O)C(C)C)n1  Cmax (human, plasma; oral, 75 mg, day 28): 258 ng/mL
O=C(NCC1CCOCC1)c1ccc([C@H]2[C@@H](F)[C@@H](F)C[C@@H](F)[C@H]2F)cc1  hepatic clearance (liver microsome stability; rat liver microsomes; 1 µM): 13 mL/min/kg
O=Cc1cc2ccccc2cc1C=O  degradation rate constant (chemical stability, HPLC-MS; borate buffered saline; pH 10.2, no N-acetyl-lysine): 0.1 h⁻¹
Cn1cc(-c2cn3nccc3c(-c3cnn([C@]4(CC#N)C[C@@H](C#N)C4)c3)n2)cn1  observed accumulation ratio (healthy humans fed, plasma; oral, 30 mg once daily, day 10, geometric mean; relative to: day 10 over day 1): 1.1
